Measured values gathered from unrelated publications.
Each numbered part is a random draw from the data of one study; scales do not carry over between parts. Substitutions count along the parent as printed.

Block 1
Target: Fragile X messenger ribonucleoprotein 1, C-terminal low-complexity region (Fmr1, Mus musculus, UniProt P35922)
Technique: RNA Bind-n-Seq
Form: RNA
Matrix: in vitro
Concentration: 200 nM
Notes: whole 134-nt RNA, ends assumed
Together with: 150 mM KCl
Reference: input library
Direction: higher = stronger binding
Endpoint: log2 enrichment
Constant ends, left off below: GGGAGUUCUACAGUCCGACGAUC … UGGAAUUCUCGGGUGUCAAGG
CCUGUGCUACACAUCGUAUGUACCGAAUCGGUUUUUUUGGGUUUUUUUGGGGUUUUUUUGGAAAGUAUUAUGUUACGCCGUUCGGAUCUG: -0.856
UCCUGUGCUACACAUCGUAUGUACCGAAUCGGGGCCCCCCGGCCCCCCGGGCCCCCCGGGAAAGUAUUAUGUUACGCCGUUCGGAUCUGC: -0.0428
CCUCAAGUCCUGUGCUACACAUCGUAUGUACCGAAUCGGUGGGGUGGGUGGGGAAAGUAUUAUGUUACGCCGUUCGGAUCUGCACUUCCA: 1.33
AAGUCCUGUGCUACACAUCGUAUGUACCGAAUCGGAGGUUUUUUUGGUUUUUUUGGAAAGUAUUAUGUUACGCCGUUCGGAUCUGCACUU: -1.06
GUCCUGUGCUACACAUCGUAUGUACCGAAUCGGGAAAAAGGGAAAAAGGGGAAAAAGGAAAGUAUUAUGUUACGCCGUUCGGAUCUGCAC: -0.175
UAACUUUAGAGGAGGAUCUGAUGGAUAUGGCAGUGGACGUGGAUUUGGGGAUGGCUAUAAUGGGUAUGGAGCAGGACCUGGAGGUGGCAA: 0.111
UAACUUUAGAGGAGGAUCUGAUGGAUAUGGCAGUGGACGUGGAUUUGGGGAUGGCUAUAAUGGGUAAGGAGGAGGACCUGGAGGUGGCAA: 0.331
AGUCCUGUGCUACACAUCGUAUGUACCGAAUCGGGGUGGGGAAAAAAAGGGGAGGGGAAAGUAUUAUGUUACGCCGUUCGGAUCUGCACU: 0.93

Block 2
Target: Centromere-binding protein 1, full length, His-tagged (CBF1, Saccharomyces cerevisiae, UniProt P17106, residues 1-351)
UniProt P17106, sequence (whole entry, looked up): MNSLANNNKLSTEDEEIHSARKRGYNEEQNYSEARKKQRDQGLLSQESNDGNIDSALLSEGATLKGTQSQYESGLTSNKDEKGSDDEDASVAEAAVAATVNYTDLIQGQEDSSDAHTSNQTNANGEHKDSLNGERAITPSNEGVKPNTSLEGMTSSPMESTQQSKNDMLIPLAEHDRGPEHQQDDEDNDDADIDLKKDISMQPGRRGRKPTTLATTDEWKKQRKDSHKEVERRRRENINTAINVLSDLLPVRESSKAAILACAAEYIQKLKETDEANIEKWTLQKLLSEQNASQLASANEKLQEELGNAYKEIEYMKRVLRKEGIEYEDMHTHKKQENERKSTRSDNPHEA
Technique: competition protein-binding microarray
Form: double-stranded DNA, one strand shown
Matrix: in vitro
Concentration: 2 µM
Notes: whole 60-bp probe, lowest competitor level
Together with: Pho4 competitor, 0.05 µM
Direction: higher = stronger binding
Endpoint: fluorescence intensity
Constant ends, left off below: … GTCTTGATTCGCTTGACGCTGCTG
CATACCCAACCTTGAATTGTGGGTGAAGATATTTGT: 84.5 a.u.
AGAAGAGACGCAGCAAGCGTGGGTAAATGATAATGA: 84.4 a.u.
GATTGCTCTCAAAATCTCGTGGGTACCCGTCGTTGA: 77.6 a.u.
CTTCTGTAAATTTTGCACGTGTTTTGACGCGCCCCG: 1370 a.u.
AGAATAGTTACGGATCAGGTGATGAGACGATAAAAA: 1120 a.u.
CGTCCTAGTGATTGTCACGGTACTTCCATGAGGAAG: 245 a.u.
CCTCGGCGCTCCAACCACGTGCTGTTTATTACTCTG: 1860 a.u.
CTTCTGTAAATTTGTTGCGTGGGTGGACGCGCCCCG: 72.1 a.u.
CAGTTAATTTTGGATCTCGTGACGGGTAATCTTCTT: 1700 a.u.

Block 3
Target: CCNE2, cyclin fold, Cln2 fusion (human)
Technique: yeast growth competition, sequencing
Matrix: yeast
Notes: strong parent motif
Reference: not given
Direction: higher = stronger binding
Endpoint: normalised enrichment score
Starting sequence: CDKN1B docking peptide (human); PSACRNLFGPVDH
PSATRNLFGPVDH [C4T]: 0.459
PSACLNLFGPVDH [R5L]: 0.0477
PSACDNLFGPVDH [R5D]: -0.262
PSACYNLFGPVDH [R5Y]: 0.264

Mixed results
PhoQ, residues 284 288 289 292 302 303 AANNSF  fold induction (PhoP, residues 12 14 15 18 19 GMGLL (Escherichia coli, UniProt P23836); Sort-seq, refers to: YFP reporter; E. coli; PhoQ-PhoP variant library, together with: 10 µM Mg2+; reference: high Mg2+ state, higher = stronger signaling): 1.53

For quick reference, copied from above (block 1):
AGUCCUGUGCUACACAUCGUAUGUACCGAAUCGGGGUGGGGAAAAAAAGGGGAGGGGAAAGUAUUAUGUUACGCCGUUCGGAUCUGCACU: 0.93
UAACUUUAGAGGAGGAUCUGAUGGAUAUGGCAGUGGACGUGGAUUUGGGGAUGGCUAUAAUGGGUAUGGAGCAGGACCUGGAGGUGGCAA: 0.111
